# Assay results from different studies.
# Lines come from different studies, so protocols differ.
# Cell line: HeLa
Substance,test,setting,how to read,endpoint,result
CCn1c2ccccc2c2cc(C3CC(c4cc5cccc(OC)c5oc4=O)=NN3c3cccc(Cl)c3)ccc21 (stereo not drawn),propidium iodide staining,"IC50, 24 h",,cells in G0/G1 phase,75.1%
Alexa Fluor 546-transferrin,"live-cell confocal microscopy, item: rhodamine-labelled compound with transferrin","1 µM, 30 min, 37 °C, together with: 25 nM Alexa488-transferrin",,Pearson colocalization coefficient,0.905
C=C(CC[C@]12O[C@H](C(=O)O)[C@@](O)(C(=O)O)[C@](C(=O)O)(O1)[C@H](OC(=O)/C=C/[C@@H](C)C[C@@H](C)CC)[C@H]2O)[C@@H](OC(C)=O)[C@H](C)Cc1ccccc1,,"10 µM, 24 h",,cellular cholesterol reduction,25%
CC(=NN=C(N)[S-])C(C)=NN=C(N)[S-].O=[N+]([O-])[O-].[Co+3].c1c[nH]cn1.c1c[nH]cn1,"cell growth or viability, MTT",,,IC50,> 500 µM
CC1(C(=O)Nc2ccc(OS(=O)(=O)c3ccccc3)cc2)c2ccccc2-c2ccccc21,"cell growth or viability, MTT","100 µM, 24 h",,inhibition,28.1%
CN(C)C/C=C/C(=O)Nc1ccc(C(=O)Nc2cccc(Nc3cc(-c4c[nH]c5ccccc45)ncn3)c2)cc1,"lysosome enlargement and autophagy block, immunofluorescence",18 h,,lowest active concentration,250 nM
S=C(NN=Cc1ccc(Cl)s1)Nc1ccccc1,"altered cell morphology, microscopy",confluent cultures,,cytotoxic concentration,100 µM
N=C(N)NCCC[C@@H]1NC(=O)[C@H](CCCNC(=N)N)NC(=O)[C@H](CCCNC(=N)N)NC(=O)[C@H](Cc2ccc3ccccc3c2)NC(=O)[C@H](Cc2ccccc2)NC(=O)[C@H](CCC(N)=O)NC(=O)[C@H](CCCNC(=N)N)NC1=O,flow cytometry,"1 µM, 30 min, together with: dextran-Alexa488 100 µM",reference: untreated,dextran internalisation increase,15%
CC1(C(=O)Nc2ccc(OS(C)(=O)=O)cc2)c2ccccc2-c2ccccc21,"cell growth or viability, MTT","100 µM, 24 h",,inhibition,> 50%
CC[C@H](C)[C@H](NC(=O)[C@H](Cc1c[nH]cn1)NC(=O)[C@H](Cc1ccccc1)NC(=O)[C@H]1CSCc2ccccc2CSC[C@@H](NC(=O)[C@@H](NC(=O)Cc2ccccc2)C(C)C)C(=O)N[C@@H](CC(N)=O)C(=O)N[C@@H](C)C(=O)N1)C(=O)N[C@@H](Cc1c[nH]c2ccccc12)C(=O)N[C@@H](Cc1c[nH]cn1)C(N)=O,immunoblot p62 and LC3-II,"concentration not given, 2 h, acidified Opti-MEM",,autophagy induction,inactive
N=C(N)NCCC[C@@H]1NC(=O)[C@H](CCCNC(=N)N)NC(=O)[C@H](CCCNC(=N)N)NC(=O)[C@H](Cc2ccc3ccccc3c2)NC(=O)[C@H](Cc2ccccc2)NC(=O)[C@H](CCC(N)=O)NC(=O)[C@H](CCCNC(=N)N)NC1=O,"flow cytometry, item: Rho-labelled peptide","5 µM, 2 h, 37 °C, miniPEG linker",reference: compound set to 100%,total cellular uptake,100%
Cc1ccc(C(=O)Nc2ccc(OS(=O)(=O)c3ccccc3)cc2)cc1,"cell growth or viability, MTT","100 µM, 24 h",,inhibition,44.9%

# Repeated from above:
Substance,test,setting,how to read,endpoint,result
CCn1c2ccccc2c2cc(C3CC(c4cc5cccc(OC)c5oc4=O)=NN3c3cccc(Cl)c3)ccc21 (stereo not drawn),propidium iodide staining,"IC50, 24 h",,cells in G0/G1 phase,75.1%
